Assay results of several laboratories.
Compare with care: the assays were run in different laboratories. Numbers after ± are the reported error. Non-standard residues stand in square brackets, D forms with d. No end group written: not given here.
B1: RAD30/POL30 binary complex (Saccharomyces cerevisiae); Cy3 on PCNA; chain 1 MSKFTWKELIQLGSPSKAYESSLACIAHIDMNAFFAQVEQMRCGLSKEDPVVCVQWNSIIAVSYAARKYGISRMDTIQEALKKCSNLIPIHTAVFKKGEDFWQYHDGCGSWVQDPAKQISVEDHKVSLEPYRRESRKALKIFKSACDLVERASIDEVFLDLGRICFNMLMFDNEYELTGDLKLKDALSNIREAFIGGNYDINSHLPLIPEKIKSLKFEGDVFNPEGRDLITDWDDVILALGSQVCKGIRDSIKDILGYTTSCGLSSTKNVCKLASNYKKPDAQTIVKNDCLLDFLDCGKFEITSFWTLGGVLGKELIDVLDLPHENSIKHIRETWPDNAGQLKEFLDAKVKQSDYDRSTSNIDPLKTADLAEKLFKLSRGRYGLPLSSRPVVKSMMSNKNLRGKSCNSIVDCISWLEVFCAELTSRIQDLEQEYNKIVIPRTVSISLKTKSYEVYRKSGPVAYKGINFQSHELLKVGIKFVTDLDIKGKNKSYYPLTKLSMTITNFDIIDLQKTVVDMFGNQVHTFKSSAGKEDEEKTTSSKADEKTPKLECCKYQVTFTDQKALQEHADYHLALKLSEGLNGAEESSKNLSFGEKRLLFSRKRPNSQHTATPQKKQVTSSKNILSFFTRKK; chain 2 MLEAKFEEASLFKRIIDGFKDCVQLVNFQCKEDGIIAQAVDDSRVLLVSLEIGVEAFQEYRCDHPVTLGMDLTSLSKILRCGNNTDTLTLIADNTPDSIILLFEDTKKDRIAEYSLKLMDIDADFLKIEELQYDSTLSLPSSEFSKIVRDLSQLSDSINIMITKETIKFVADGDIGSGSVIIKPFVDMEHPETSIKLEMDQPVDLTFGAKYLLDIIKGSSLSDRVGIRLSSEAPALFQFDLKSGFLQFFLAPKFNDEE
B2: UGT1A9 (Homo sapiens, UniProt O60656); chain GKLLVVPMDGSHWFTMRSVVEKLILRGHEVVVVMPEVSWQLGRSLNCTVKTYSTSYTLEDLDREFKAFAHAQWKAQVRSIYSLLMGSYNDIFDLFFSNCRSLFKDKKLVEYLKESSFDAVFLDPFDNCGLIVAKYFSLPSVVFARGILCHYLEEGAQCPAPLSYVPRILLGFSDAMTFKERVRNHIMHLEEHLLCHRFFKNALEIASEILQTPVTEYDLYSHTSIWLLRTDFVLDYPKPVMPNMIFIGGINCHQGKPLPMEFEAYINASGEHGIVVFSLGSMVSEIPEKKAMAIADALGKIPQTVLWRYTGTRPSNLANNTILVKWLPQNDLLGHPMTRAFITHAGSHGVYESICNGVPMVMMPLFGDQMDNAKRMETKGAGVTLNVLEMTSEDLENALKAVINDKSYKENIMRLSSLHKDRPVEPLDLAVFWVEFVMRHKGAPHLRPAAHDLTWYQYHSLDVIGFLLAVVLTVAFITFKCCAYGYRKCLGKKGRVKKAHKSKTH
B3: GSTP1 3-210 I105V/A114V (Homo sapiens, UniProt P09211); QSY 35 label; chain PYTVVYFPVRGRCAALRMLLADQGQSWKEEVVTVETWQEGSLKASCLYGQLPKFQDGDLTLYQSNTILRHLGRTLGLYGKDQQEAALVDMVNDGVEDLRCKYVSLIYTNYEVGKDDYVKALPGQLKPFETLLSQNQGGKTFIVGDQISFADYNLLDLLLIHEVLAPGCLDAFPLLSAYVGRLSARPKLKAFLASPEYVNLPINGNGKQ
B4: Ncan (Rattus norvegicus, UniProt P55067); 125I label, chondroitin sulfate chains; sequence looked up; chain DQDTQDTTTTEKGLHMLKSGSGPIQAALAELVALPCFFTLQPRQSPLGDIPRIKWTKVQTASGQRQDLPILVAKDNVVRVAKGWQGRVSLPAYPRHRANATLLLGPLRASDSGLYRCQVVKGIEDEQDLVTLEVTGVVFHYRAARDRYALTFAEAQEACHLSSATIAAPRHLQAAFEDGFDNCDAGWLSDRTVRYPITQSRPGCYGDRSSLPGVRSYGRRDPQELYDVYCFARELGGEVFYVGPARRLTLAGARALCQRQGAALASVGQLHLAWHEGLDQCDPGWLADGSVRYPIQTPRRRCGGSAPGVRTVYRFANRTGFPAPGARFDAYCFRAHHHTPQRGDSEIPSSGDEGEIVSAEGPPAPELKPRLGEQEVITPDFQEPLVSSGEDEPLDLTRTQASQETLASTPGGPTLASWLLTGVTSSTGVPSPSSLGVDMEETTPSGTQVAPTPTMRRGRFKGLNGRHFQQQGPEDQLLEAAEASAQPPTLEVTADHMGPSAATEALESDQSHSPWAILTNEVDVPGAGSLGSRSLPESRKWSPSLISPSTVPSTDSTPGLKPGADEAPGVKSAIHHPPWLPSEPAVPSSIPSEALSAVSLQASPGDGSPDFPIVAMLRAPKLWLLPHSTLVPNVSPIPLSPASPLPSSVPEEQAVRPVSFGAEDPETPFQTTMAAPGEASHGSPEADSIEIEGISSMQATKHPISGPWASLDSSNVTVNPVPSDAGILGTESGVLDLPGSPTSDGQATVDMVLATWLPLPGHGLDTGSQSTPMEAHGVTMSVEPTVALEGGATKDPMEATMDVVPSTVDATSGSEPKSSISSTHVVVTAAGDQGTPTLTPTSSEGQVVAQESLGTLTSLPSHPWSSLASSMDEVASVSSGEPTRLWDIPSTLIPVSLGLDESDLKVVAESPGLEGFWEEVASGQEDPTDPCENNPCLHGGTCRTNGTMYGCSCDQGYAGENCEIDIDDCLCSPCENGGTCIDEVNGFICLCLPSYGGNLCEKDTEGCDRGWHKFQGHCYRYFAHRRAWEDAERDCRRRAGHLTSVHSPEEHKFINSFGHENSWIGLNDRTVERDFQWTDNTGLQYENWREKQPDNFFAGGEDCVVMVAHENGRWNDVPCNYNLPYVCKKGTVLCGPPPAVENASLVGVRKVKYNVHATVRYQCDEGFSQHHVATIRCRSNGKWDRPQIVCTKPRRSHRMRRHHHHPHRHHKPRKEHRKHKRHPAEDWEKDEGDFC
B5: enzyme (Bacillus pumilus, UniProt A8FFI9); chain EARSIAWSVDEFFKNREGTFVIQEVKEKSPWVYNKKRAKERFAPQSTFKVANALIGLQTGAVRDEYDIKYWDGVKREIDNWNRDHTLGSGMRDSVVWYYQAMARDIGEERMNHWVKAIHYGNKDISGGIDQFWLSSTLRISPIEQVRFLKQLYEETLPFDLKNMRTVKRMMVQEEEKHATLYGKTGSGSDIGWYVGFIKHEHKTYILATNIKGTGIEAKDITYRILKKYHLMEASV
B6: L3MBTL3 1-197 (Homo sapiens, UniProt Q96JM7-2); sequence looked up; chain MTESASSTSGQEFDVFSVMDWKDGVGTLPGSDLKFRVNEFGALEVITDENEMENVKKATATTTWMVPTAQEVFSEKTGMPFRLKDPVKVEGLQFCENCCQYGNVDECLSGGNYCSQNCARHIKDKDQKEERDVEEDNEEEDPKCSRKKKPKLSLKADTKEDGEERDDEMENKQDVRILRGSQRARRKRRGDSAVLKQ
Sequence of UniProt P31266 (whole entry, looked up): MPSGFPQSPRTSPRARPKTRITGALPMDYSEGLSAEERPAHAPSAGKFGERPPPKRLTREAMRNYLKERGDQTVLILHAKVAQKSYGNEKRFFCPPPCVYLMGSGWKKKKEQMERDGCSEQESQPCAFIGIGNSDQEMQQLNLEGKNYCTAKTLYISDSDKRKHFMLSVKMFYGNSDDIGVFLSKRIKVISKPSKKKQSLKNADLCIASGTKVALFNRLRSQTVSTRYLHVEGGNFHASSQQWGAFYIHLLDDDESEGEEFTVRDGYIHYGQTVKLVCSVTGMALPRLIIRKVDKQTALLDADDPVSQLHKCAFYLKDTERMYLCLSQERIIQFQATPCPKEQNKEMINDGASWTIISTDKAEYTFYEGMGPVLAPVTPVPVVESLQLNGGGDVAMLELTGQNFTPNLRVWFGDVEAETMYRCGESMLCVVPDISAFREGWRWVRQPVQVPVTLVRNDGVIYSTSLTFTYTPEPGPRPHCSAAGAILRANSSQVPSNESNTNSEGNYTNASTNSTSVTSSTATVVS
Sequence of UniProt P12689 (whole entry, looked up): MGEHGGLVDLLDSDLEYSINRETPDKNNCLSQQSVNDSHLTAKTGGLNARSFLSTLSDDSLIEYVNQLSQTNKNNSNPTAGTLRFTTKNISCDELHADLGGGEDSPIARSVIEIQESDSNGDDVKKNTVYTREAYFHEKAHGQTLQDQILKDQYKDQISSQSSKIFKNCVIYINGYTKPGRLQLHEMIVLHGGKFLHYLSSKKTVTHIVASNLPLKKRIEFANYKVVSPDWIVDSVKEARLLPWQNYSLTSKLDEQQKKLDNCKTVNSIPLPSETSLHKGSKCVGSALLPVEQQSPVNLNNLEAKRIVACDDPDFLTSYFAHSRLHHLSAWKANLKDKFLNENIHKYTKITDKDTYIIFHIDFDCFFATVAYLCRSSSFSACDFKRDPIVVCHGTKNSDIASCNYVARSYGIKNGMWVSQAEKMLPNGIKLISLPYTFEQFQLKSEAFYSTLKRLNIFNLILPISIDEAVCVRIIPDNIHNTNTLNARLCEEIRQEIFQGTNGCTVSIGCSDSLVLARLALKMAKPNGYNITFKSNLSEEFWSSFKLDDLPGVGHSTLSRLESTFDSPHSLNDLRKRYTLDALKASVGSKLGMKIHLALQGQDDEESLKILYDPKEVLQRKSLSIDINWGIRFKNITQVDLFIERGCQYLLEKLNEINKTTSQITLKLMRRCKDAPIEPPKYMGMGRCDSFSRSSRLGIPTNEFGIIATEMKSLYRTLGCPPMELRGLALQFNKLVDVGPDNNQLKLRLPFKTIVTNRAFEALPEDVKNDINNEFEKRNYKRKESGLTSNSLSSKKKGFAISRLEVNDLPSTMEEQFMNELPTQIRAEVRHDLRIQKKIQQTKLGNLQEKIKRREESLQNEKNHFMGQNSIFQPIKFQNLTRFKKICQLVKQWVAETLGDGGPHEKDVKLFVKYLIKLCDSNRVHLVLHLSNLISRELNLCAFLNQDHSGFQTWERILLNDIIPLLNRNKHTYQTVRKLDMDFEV
Sequence of UniProt Q99NH2 (whole entry, looked up): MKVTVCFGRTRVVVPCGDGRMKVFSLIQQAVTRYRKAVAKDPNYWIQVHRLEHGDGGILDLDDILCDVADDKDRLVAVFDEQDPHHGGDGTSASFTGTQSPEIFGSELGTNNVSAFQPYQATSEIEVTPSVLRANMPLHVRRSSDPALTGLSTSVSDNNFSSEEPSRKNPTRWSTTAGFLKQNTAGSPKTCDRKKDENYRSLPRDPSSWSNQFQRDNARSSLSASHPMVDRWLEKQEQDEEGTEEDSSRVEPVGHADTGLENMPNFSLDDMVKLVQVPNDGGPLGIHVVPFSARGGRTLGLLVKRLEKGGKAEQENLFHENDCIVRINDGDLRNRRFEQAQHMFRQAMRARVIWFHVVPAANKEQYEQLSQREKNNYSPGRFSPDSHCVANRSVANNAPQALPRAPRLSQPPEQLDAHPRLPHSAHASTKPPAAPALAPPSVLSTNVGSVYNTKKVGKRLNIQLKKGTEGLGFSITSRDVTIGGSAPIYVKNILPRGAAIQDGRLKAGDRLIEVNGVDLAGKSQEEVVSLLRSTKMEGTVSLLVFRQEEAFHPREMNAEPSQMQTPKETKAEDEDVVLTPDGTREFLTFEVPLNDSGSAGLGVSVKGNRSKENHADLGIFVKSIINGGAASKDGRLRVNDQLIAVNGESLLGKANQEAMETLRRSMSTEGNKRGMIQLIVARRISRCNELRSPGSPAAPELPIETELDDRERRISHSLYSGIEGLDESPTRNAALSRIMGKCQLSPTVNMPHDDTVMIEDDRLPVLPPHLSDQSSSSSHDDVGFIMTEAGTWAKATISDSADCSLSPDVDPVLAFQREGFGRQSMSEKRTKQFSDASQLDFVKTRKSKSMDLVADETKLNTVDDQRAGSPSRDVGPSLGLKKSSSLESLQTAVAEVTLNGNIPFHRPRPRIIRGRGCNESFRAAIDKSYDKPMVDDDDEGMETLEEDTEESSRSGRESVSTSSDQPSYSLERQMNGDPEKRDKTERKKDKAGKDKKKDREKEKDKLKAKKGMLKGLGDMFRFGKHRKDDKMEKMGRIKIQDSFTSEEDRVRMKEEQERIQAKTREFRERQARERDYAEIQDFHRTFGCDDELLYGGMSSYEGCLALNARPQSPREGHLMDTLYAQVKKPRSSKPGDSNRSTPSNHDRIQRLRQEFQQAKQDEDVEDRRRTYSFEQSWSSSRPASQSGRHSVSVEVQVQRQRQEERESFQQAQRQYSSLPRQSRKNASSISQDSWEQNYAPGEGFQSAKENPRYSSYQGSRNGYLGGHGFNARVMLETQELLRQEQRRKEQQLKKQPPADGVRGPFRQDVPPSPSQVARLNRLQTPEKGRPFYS
Sequence of UniProt P21784 (whole entry, looked up): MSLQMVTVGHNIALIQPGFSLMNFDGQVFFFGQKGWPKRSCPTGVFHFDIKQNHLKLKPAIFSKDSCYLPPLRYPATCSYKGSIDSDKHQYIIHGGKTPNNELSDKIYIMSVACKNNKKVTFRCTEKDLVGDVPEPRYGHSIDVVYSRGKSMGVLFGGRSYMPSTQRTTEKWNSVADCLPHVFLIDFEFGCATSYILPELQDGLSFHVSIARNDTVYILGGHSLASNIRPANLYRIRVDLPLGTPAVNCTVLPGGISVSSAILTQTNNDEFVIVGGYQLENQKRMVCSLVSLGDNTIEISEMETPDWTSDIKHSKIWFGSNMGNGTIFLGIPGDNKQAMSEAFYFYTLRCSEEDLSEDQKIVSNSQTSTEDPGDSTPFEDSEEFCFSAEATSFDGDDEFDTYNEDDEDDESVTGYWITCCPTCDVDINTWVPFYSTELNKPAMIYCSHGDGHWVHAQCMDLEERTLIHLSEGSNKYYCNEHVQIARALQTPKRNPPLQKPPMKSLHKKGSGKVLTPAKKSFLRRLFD
Sequence of UniProt Q03696 (whole entry, looked up): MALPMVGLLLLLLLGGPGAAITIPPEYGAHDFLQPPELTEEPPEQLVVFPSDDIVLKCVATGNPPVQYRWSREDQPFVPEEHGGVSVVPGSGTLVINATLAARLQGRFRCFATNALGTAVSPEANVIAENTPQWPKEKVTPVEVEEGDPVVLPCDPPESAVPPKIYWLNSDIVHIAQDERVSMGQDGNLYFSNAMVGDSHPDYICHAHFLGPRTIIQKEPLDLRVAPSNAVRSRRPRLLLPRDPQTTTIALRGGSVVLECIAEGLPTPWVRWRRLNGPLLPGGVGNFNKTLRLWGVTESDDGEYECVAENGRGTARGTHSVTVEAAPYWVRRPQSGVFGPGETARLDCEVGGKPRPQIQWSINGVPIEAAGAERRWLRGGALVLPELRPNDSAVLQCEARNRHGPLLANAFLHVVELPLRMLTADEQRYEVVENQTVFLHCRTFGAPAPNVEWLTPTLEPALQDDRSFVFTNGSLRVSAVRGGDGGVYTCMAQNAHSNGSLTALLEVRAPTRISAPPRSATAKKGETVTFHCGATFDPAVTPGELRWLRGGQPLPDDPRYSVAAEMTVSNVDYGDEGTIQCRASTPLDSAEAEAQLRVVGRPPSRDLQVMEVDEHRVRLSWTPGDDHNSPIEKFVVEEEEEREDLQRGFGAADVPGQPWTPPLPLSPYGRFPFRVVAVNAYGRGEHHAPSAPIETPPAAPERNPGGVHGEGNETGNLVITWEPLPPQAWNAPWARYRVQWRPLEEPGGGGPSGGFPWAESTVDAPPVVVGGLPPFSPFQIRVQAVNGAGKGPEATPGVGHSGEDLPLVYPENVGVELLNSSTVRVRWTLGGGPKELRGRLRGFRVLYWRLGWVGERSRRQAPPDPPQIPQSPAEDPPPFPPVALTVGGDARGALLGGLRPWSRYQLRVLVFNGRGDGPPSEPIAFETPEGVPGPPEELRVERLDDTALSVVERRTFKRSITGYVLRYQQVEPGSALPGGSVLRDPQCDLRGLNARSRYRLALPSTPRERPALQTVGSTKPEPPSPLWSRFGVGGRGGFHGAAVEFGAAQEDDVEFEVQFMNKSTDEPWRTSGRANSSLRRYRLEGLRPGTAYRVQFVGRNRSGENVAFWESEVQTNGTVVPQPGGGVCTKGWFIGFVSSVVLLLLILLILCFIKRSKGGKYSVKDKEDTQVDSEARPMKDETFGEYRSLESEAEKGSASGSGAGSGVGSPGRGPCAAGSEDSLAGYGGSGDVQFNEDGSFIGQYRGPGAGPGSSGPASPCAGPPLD
Sequence of UniProt P30041 (whole entry, looked up): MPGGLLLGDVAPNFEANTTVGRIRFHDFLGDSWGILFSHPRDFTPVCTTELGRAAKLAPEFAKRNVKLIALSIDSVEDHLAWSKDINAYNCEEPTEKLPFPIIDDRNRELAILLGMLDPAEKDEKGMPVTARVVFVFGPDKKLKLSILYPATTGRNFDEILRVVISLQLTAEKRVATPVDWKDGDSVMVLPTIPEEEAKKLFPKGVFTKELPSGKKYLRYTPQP

Molecule	target or system	test	test system	conditions	how to read	endpoint	result
B1 (RAD30/POL30 binary complex)	REV1, Cy5 label (Saccharomyces cerevisiae, UniProt P12689)	single-molecule TIRF	–	1 nM	–	Kd	18 nM
CLSTAADMQGVVTDGMASGLDKDYLKPDD (azu residues 50-77)	TP63 DBD 127-323 (Homo sapiens)	atomic force spectroscopy	peptide	pH 7.5, NaCl 150 mM	–	Kd	790 nM
SIIVFEKL	OT-I CD8+ T cells	–	peptide	concentration not given, primed 5 d, OVA257 100 ng/mL restimulation, added: no TGF-beta1	–	IL-2+ cells	79.6%
ART[Lys(Me3)]QTARKSTG (histone H3 peptide; K4me3; Lys(Me3) = C[N+](C)(C)CCCC[C@H](N)C(=O)O)	Rag2 414-487 (Mus musculus, UniProt P21784)	ITC	peptide	–	–	Kd	17800 nM
F5 factor Va D334K/Y335F (Homo sapiens)	F10 factor Xa (Homo sapiens)	thrombin generation, functional titration	–	apparent, not purified	–	Kd	0.55 ± 0.13 nM
B2 (UGT1A9)	COc1ccc2c(=O)c(O)c(-c3ccccc3)oc2c1	steady-state kinetics	–	pH 7.4, 37 °C	–	Vmax/Km	37000 µL/min/mg
SIYNFEKL	OT-I CD8+ T cells	–	peptide	concentration not given, primed 5 d, OVA257 100 ng/mL restimulation, added: 20 ng/mL TGF-beta1 from day 2	–	IFN-gamma+ cells	41.1%
rhodamine-LYGSAPQEELII (Cdh5 773-784 D777A (Mus musculus, UniProt P55284); reading uncertain; N-terminal rhodamine; rhodamine = not defined here; sequence looked up)	Pard3 581-689 (Mus musculus, UniProt Q99NH2)	fluorescence polarisation	peptide	100 nM, pH 7.4, 298 K, NaCl 100 mM	–	Kd	42000 nM
FGF8 (Homo sapiens, UniProt P55075)	FGFR3 isoform IIIc (unknown, UniProt Q61851)	cell proliferation, MTT	BaF3-FGFR3c	20 nM, 48 h, added: heparosan 4.9 µg/mL	reference: FGF 1 with heparin, higher = more proliferation	cell proliferation	37%
B3 (GSTP1 3-210 I105V/A114V)	PRDX6 1-224, Alexa 546 label (Homo sapiens, UniProt P30041)	FRET	–	pH 7.4, apparent, added: GSH 1 mM	–	Kd	57.2 nM
B4 (Ncan)	Ng-CAM mature (Gallus gallus, UniProt Q03696)	radioligand binding	–	NaCl 150 mM, saturation	–	Kd	1.8 nM
DLAT L2 domain, lipoylated (Homo sapiens)	PDHA1/PDHB α2β2 heterotetramer 30-390 (Homo sapiens)	ITC	–	pH 7.5, 20 °C, KCl 10 mM	–	Kd	1300 nM
chlD AAA+ domain plus polyproline region (Synechocystis) (sequence not shown)	chlI C244S, Alexa Fluor 488 label (Synechocystis)	MST	–	pH 7.8, 20 °C, added: MgADP 3 mM	–	Kd	183 ± 25.9 nM
B5 (enzyme)	CC(C)(O/N=C(\C(=O)N[C@@H]1C(=O)N2C(C(=O)[O-])=C(C[n+]3ccccc3)CS[C@H]12)c1csc(N)n1)C(=O)O	steady-state kinetics	–	pH 7	–	kcat	> 0.9 s⁻¹
B6 (L3MBTL3 1-197)	Rbpj 53-474 (Mus musculus, UniProt P31266)	ITC	–	pH 6.5, 25 °C, NaCl 150 mM, one site model	–	Kd	1500 nM

Repeated from above:
Molecule	target or system	test	test system	conditions	how to read	endpoint	result
B2 (UGT1A9)	COc1ccc2c(=O)c(O)c(-c3ccccc3)oc2c1	steady-state kinetics	–	pH 7.4, 37 °C	–	Vmax/Km	37000 µL/min/mg
SIYNFEKL	OT-I CD8+ T cells	–	peptide	concentration not given, primed 5 d, OVA257 100 ng/mL restimulation, added: 20 ng/mL TGF-beta1 from day 2	–	IFN-gamma+ cells	41.1%
